Experimental data pooled from the literature.
Lines come from different studies, so protocols differ. Several values in a cell are separate wells, animals, samples, runs or records. ± gives the spread as reported.

For `Cc1[nH]c(=O)c(CNC(=O)c2cn[nH]c2)c2c1CCCC2`, the kinetic solubility was 246 µg/mL (U-HPLC; 20% DMSO in water).
The tissue/plasma ratio of `CCc1ccc(Cc2ccc3c(c2)[C@]2(OC3)O[C@H](CO)[C@@H](O)[C@H](O)[C@H]2O)cc1` is reported as 250 ± 114 (Wistar rat, male, small intestine; oral, dose not given, 8 h; reference: small intestine over plasma concentration).
With `CC[C@H](C)[C@@H]1NC(=O)[C@H](Cc2ccc(O)cc2)NC(=O)[C@@H](N)CSSC[C@@H](C(=O)N2CCC[C@H]2C(=O)N[C@@H](CC(C)C)C(=O)NCC(N)=O)NC(=O)[C@H](CC(N)=O)NC(=O)[C@H](CCC(N)=O)NC1=O` the half-life was 0.315 ± 0.0783 h (microdialysis, radioimmunoassay; C57BL/6J male mice, wild type, amygdala extracellular fluid; intraperitoneal, 12 µg total, time to half of Cmax).
For `COc1ccc(-c2cc(=O)c3c(O)c(OC)c(OC)c(OC)c3o2)cc1OC`, “tissue to peel content ratio” read 1.89% (C57BL/6 mouse, male, colon; oral, 1% w/w in diet, 6 weeks, orange peel extract diet; reference: content in orange peel).
For `O=C1CN(/N=C/c2ccc(-c3ccc([N+](=O)[O-])cc3)o2)C(O)=N1`, “hepatocyte vacuolization score” read 0 (Sprague-Dawley rat, male, liver; oral, 1000 mg/kg, 6 h, single high dose; direction not given).
Under “volume of distribution (Vz)”, `CC(=O)O[C@H]1C(=O)[C@@]2(C)[C@H]([C@H](OC(=O)c3ccccc3)[C@]3(O)C[C@H](OC(=O)[C@H](O)[C@@H](NC(=O)c4ccccc4)c4ccccc4)C(C)=C1C3(C)C)[C@]1(OC(C)=O)CO[C@@H]1C[C@@H]2O` is recorded as 213 ± 74.3 L/m² (noncompartmental analysis; human, plasma; intravenous, 80 mg/m^2, day 8, DL3 geometric mean, added: onalespib 200 mg/m^2).
`COc1cc(/C=C/C(=O)CC(=O)/C=C/c2ccc(O)c(OC)c2)ccc1O` — result for “brain uptake ratio”: 8.48 (I-125 label; C57BL/6J mouse, cerebellum; intranasal vs intraperitoneal, 10 µg/mouse IN, 100 µg/mouse IP, 12 h; reference: intranasal over intraperitoneal).
The compound remaining of `CCCCCCCCC(=O)N[C@H]1CNC1=O` is reported as 100% (chemical stability; PBS; 1 µM, 24 h, pH 7.4).
For `COc1cc(OC)c(/C=C/S(=O)(=O)Cc2ccc(OC)c(NCC(=O)O)c2)c(OC)c1`, the Vss/F was 788 ± 415 L (cancer patients, phase I, plasma; oral, 140 mg twice daily, day 21 cycle 1).
With `CSc1cc(C)nc(SC)c1NC(=O)CN1CCN(CCSc2nc3ccccc3[nH]2)CC1` the concentration was 2.1 ng/g (mouse Crl:CD1 (ICR) female, cerebrum; intranasal repeated, 32.4 µg in 0.01 N HCl, 45 min).
For `CCO[C@H](COc1ccc(C(F)(F)F)cc1)CSc1ccc(OCC(=O)O)c(C)c1`, the tissue/plasma ratio was 535 (Sprague Dawley rat, dyslipidemic, fed; oral, highest dose, 8 h; reference: liver over plasma).
The unbound fraction of `C[C@@H]1CCN(C(=O)CC#N)C[C@@H]1N(C)c1ncnc2[nH]ccc12` is reported as 0.769 (equilibrium dialysis; control rats, fresh plasma; 10 µg/mL, 24 h, 37 °C).
`CC(/C=C/C=C(\C)C(=O)O)=C\C=C\C=C(C)\C=C\C=C(/C)C(=O)O` gave a Tmax of ~0.5 h (female Wistar rat, plasma; oral, 20 mg/kg).
With `CC(C)C[C@H](NC(=O)[C@H](CC(C)C)NC(=O)[C@@H](Cc1c[nH]c2ccccc12)NC(=O)[C@H](Cc1ccccc1)NC(=O)[C@@H](NC(=O)[C@@H](N)CCCCN)[C@H](c1ccccc1)c1c[nH]c2ccccc12)C(N)=O` the HPLC retention was 55 %B (RP-HPLC Jupiter Proteo; acetonitrile/water TFA gradient).
For `COc1ccc2cc3[n+](cc2c1OC)CCc1cc2c(cc1-3)OCO2`, the measured concentration was 0.45 ± 0.05 ng/mL (rat plasma QC sample; 0.5 ng/mL nominal, 24 h, low QC level autosampler stability).
`CS(=O)(=O)Nc1ccc(C(=O)O[C@@H](Cc2c(Cl)c[n+]([O-])cc2Cl)c2ccc(OC(F)F)c(OCC3CC3)c2)cc1OCC1CC1` gave a Cmax of 0.0654 ng/mL (human, plasma; inhaled, 100 µg once daily, day 1, single-dose dry powder inhaler).
`COc1ccc(OC)c(-c2oc3c(OC)c(OC)c(OC)cc3c(=O)c2OC)c1` — result for “tissue to peel content ratio”: 69.6% (C57BL/6 mouse, male, feces; oral, 1% w/w in diet, 6 weeks, orange peel extract diet; reference: content in orange peel).
For `CN1CC[C@@H](NC(=O)Nc2ccc(C#N)cc2)C[C@@H]1c1nc2ccccc2[nH]1`, the AUC(0-inf), unbound was 998 ng·h/mL (moderate hepatic impairment, plasma; oral, 100 mg single dose, fasted, geometric mean).
For `Cn1c(-c2ccc(C(N)=O)cc2F)nnc1C(C)(C)Oc1c(F)cc(Cl)cc1F`, “Tmax range over subjects” read 1 to 4 h (young Japanese adults, plasma; oral, 20 mg single dose, day 1, high-dose multiple-dose study).
For `Cc1cnc(NC(=O)C2=C(O)c3ccccc3S(=O)(=O)N2C)s1`, “hepatocyte vacuolization score” read 0 (Sprague-Dawley rat, male, liver; oral, 0.4 mg/kg, 24 h, single low dose; direction not given).
The Cmax (mean) of `CNC(=O)c1ccc(-c2cnc3ncc(Cc4ccc5ncccc5c4)n3n2)cc1F` is reported as 1870 ng/mL (human, normal hepatic function, plasma; oral, 200 mg single dose).
Under “maximum trough plasma concentration”, `CCN(CC)CCNC(=O)c1c(C)[nH]c(/C=C2\C(=O)Nc3ccc(F)cc32)c1C` is recorded as 55.1 ng/mL (human, plasma; oral, 20 mg/m2, day 7).
With `Cl.Cl.N[C@@H](CSSC[C@H](N)C(=O)N1CCOCC1)C(=O)N1CCOCC1` the urine concentration was 2.09 ± 0.62 µM (Slc3a1 knockout male mice, urine; oral gavage, 29.3 µmol/kg daily, 1 week dosing, 4 h after last dose).
`CC(C)=CCC[C@](C)(O[C@@H]1O[C@H](CO)[C@@H](O)[C@H](O)[C@H]1O)[C@H]1CC[C@]2(C)[C@@H]1[C@H](O)C[C@@H]1[C@@]3(C)CC[C@H](O[C@@H]4O[C@H](CO)[C@@H](O)[C@H](O)[C@H]4O[C@@H]4O[C@H](CO)[C@@H](O)[C@H](O)[C@H]4O)C(C)(C)[C@@H]3CC[C@]12C` — result for “post-preparative stability accuracy”: 103 ± 7.7% (rat, extracted tissue homogenate QC samples; 0.5 µg/mL, 24 h, 15 °C, autosampler).
`Cc1nc2cccc(OCC(C)(C)C(=O)NC(C)C)c2c(N)c1C(=O)O` gave a Cmax of 162 ng/mL (Sprague-Dawley rat both sexes, plasma; dietary, 100 mg/kg/day, day 90).
For `Oc1ccc(/C=C/c2cc(O)cc(O)c2)cc1`, the AUC(0-inf) was 1870 ng·h/mL (male Sprague-Dawley rat, plasma; intravenous, 10 mg/kg).
`Cc1ccc(NC(=O)c2ccc(CN3CCNCC3)cc2)cc1Nc1nccc(-c2cccnc2)n1` — result for “volume of distribution”: 828 L (human, plasma; 400 mg/day imatinib, day 10 of cycle 1, metabolite of imatinib alone, mean).
With `O=C1N=C(N2CCOCC2)CN1c1ccc(Cl)cc1` the fraction excreted was > 26.7 and 38 (beagle dog, male, urine and cage wash; oral, 20 mg/kg, 0 to 264 h, cumulative radioactivity, added: 14C-label).
With `COc1cc(/C=C/C(=O)CC(=O)/C=C/c2ccc(O)c(OC)c2)ccc1O` the concentration was 470 nM (male C3H/HeJ mice, bone marrow; oral, 500 mg/kg, 30 min).
`COc1cccc(N2CCN(C3=Nc4c(F)cccc4[C@H](CC(=O)O)N3c3cc(C(F)(F)F)ccc3OC)CC2)c1` gave a terminal half-life of 12.2 ± 4.32 h (UHPLC-MS/MS; healthy women, plasma; intravenous infusion, 120 mg single dose, 30 min infusion, HPβCD formulation).
`C[N+](C)(C)CCc1ccc(Oc2ccc(-c3noc(-c4ccc(O)cc4)n3)cc2)cc1.[I-]` — result for “unchanged drug in faeces”: 1.5% (male Sprague Dawley rats; oral, 30 mg/kg, 0 to 48 h; reference: dose).
`CNCc1ccc(-c2[nH]c3cc(F)cc4c3c2CCNC4=O)cc1` gave a half-life of 13.9 h (human patients, plasma; oral, 40 mg once daily, day 1, single dose, arithmetic mean).
The mRNA level of `CS/C(S)=N/CCCC[S+](C)[O-]` (racemic) is reported as 2.97 (RT-PCR; rat, liver; oral gavage, 200 mg/kg, four days, unit not given; reference: vehicle).
With `Cc1cc(Nc2ncc(Cl)c(Nc3ccccc3S(=O)(=O)C(C)C)n2)c(OC(C)C)cc1C1CCNCC1` the Tss,max total was 6 h and 7.9 h and 4.4 h and 8 h and 6.2 h and 4 h (human, plasma; oral, 450 mg/day with food, steady state after dose 9).
`CCn1cc(-c2nc(C)no2)c(=O)c2cc(F)c(N3CCC(C)CC3)cc21` gave a kinetic solubility of 4.6 µM (FaSSGF; 2 h, pH 1.2, 25 °C).
`CN1CC[C@@H](NC(=O)Nc2ccc(C#N)cc2)C[C@@H]1c1nc2ccccc2[nH]1` gave a Vc/F of 3.32 L (population PK model; human cancer patients, plasma; oral, sample A kg patient).
For `CCCC[C@H](NC(C)=O)C(=O)N[C@H]1CCC(=O)NC[C@@H](C(=O)N[C@@H](Cc2c[nH]c3ccccc23)C(N)=O)NC(=O)[C@H](CCCNC(=N)N)NC(=O)[C@@H](Cc2ccccc2)NC(=O)[C@H](Cc2c[nH]cn2)NC1=O`, the AUC(0-last) was 4620 ng·h/mL (beagle dog, male, plasma; subcutaneous, 40.0 mg/kg daily, day 28).
`NC(N)=O` has a dialysis clearance of 50 mL/min (in vitro haemodialysis; buffered aqueous solution; concentration not given, blood 50, dialysate 250 mL/min).
`CCCC[C@@H]1NC(=O)[C@@H](NC(=O)[C@H](CCC(=O)O)NC(=O)CNC(=O)CN2CCN(CC(=O)O)CCN(CC(=O)O)CCN(CC(=O)O)CC2)CCCCNC(=O)C[C@@H](C(N)=O)NC(=O)[C@H](C(C)C)NC(=O)[C@@H]2CCCN2C(=O)[C@H](CCCNC(=N)N)NC(=O)CNC(=O)[C@H](Cc2c[nH]c3ccccc23)NC(=O)[C@H](CCCNC(=N)N)NC(=O)[C@@H](Cc2ccccc2)NC(=O)[C@H](Cc2c[nH]cn2)NC(=O)[C@H](CCC(=O)O)NC1=O` [indium-111 labelled] has a tissue uptake of 0.03 ± 0.03 %ID/g (C57 mice, B16/F10 lung metastatic melanoma, brain; intravenous, 0.037 MBq, 24 h).
`O=C(O)[C@H]1/C(=C/CO)O[C@@H]2CC(=O)N21` has a measured concentration of 83.1 ± 0.8 ng/mL (rat plasma; 80 ng/mL, three freeze-thaw cycles).
`C[C@]12CC[C@@H]3c4ccc(O)cc4CC[C@H]3[C@@H]1C[C@@H](O)[C@@H]2O`: “mean serum concentration” 0.00155 ng/mL (GC-MS; breast cancer women on NSAI, serum; vaginal, 0.03 mg daily, 1 h, day 28).
The concentration of `N[C@@H](CC(=O)O)Cn1nnc(-c2ccc(Oc3ncc(Cl)cc3F)cc2)n1` is reported as 5.3 ng/mL (male beagle dog, plasma; oral, 3 mg/kg, 24 h).
`CCOc1c([C@H](C)n2nc(C)c3c(N)ncnc32)cc(Cl)c(F)c1[C@@H]1CNC(=O)C1` has an exposure difference of 65 to 80% (Japanese patients, plasma; oral, dose not given, cycle 1 day 15; reference: Japanese over US patients).
`O=C1CCc2ccc(OCCCCN3CCN(c4cccc(Cl)c4Cl)CC3)cc2N1` gave a terminal half-life of 157 ± 19 h (healthy Japanese men, CYP2D6 IM, plasma; oral, 3 mg aripiprazole single, added: fluvoxamine 100 mg/day).
For `COc1cccc2c1C(=O)c1c(O)c3c(c(O)c1C2=O)C[C@@](O)(C(=O)CO)C[C@@H]3O[C@H]1C[C@H](N)[C@H](O)[C@H](C)O1`, the terminal half-life was 3.21 h (ICR mouse, male, plasma; intravenous, 6.0 mg/kg).

Excerpt of the above:
`Cc1ccc(NC(=O)c2ccc(CN3CCNCC3)cc2)cc1Nc1nccc(-c2cccnc2)n1` — result for “volume of distribution”: 828 L (human, plasma; 400 mg/day imatinib, day 10 of cycle 1, metabolite of imatinib alone, mean).
For `Cc1cnc(NC(=O)C2=C(O)c3ccccc3S(=O)(=O)N2C)s1`, “hepatocyte vacuolization score” read 0 (Sprague-Dawley rat, male, liver; oral, 0.4 mg/kg, 24 h, single low dose; direction not given).
For `COc1cc(OC)c(/C=C/S(=O)(=O)Cc2ccc(OC)c(NCC(=O)O)c2)c(OC)c1`, the Vss/F was 788 ± 415 L (cancer patients, phase I, plasma; oral, 140 mg twice daily, day 21 cycle 1).
